Values quoted from earlier work as cited in several papers.
Compare with care: the assays were run in different laboratories. Values joined by “and” are separate records of one study, mostly repeats; a detail may differ. ± gives the spread as reported.
Si: Sucrase-isomaltase, intestinal (Si, Rattus norvegicus, UniProt P23739)
Sequence of UniProt P23739 (whole entry, looked up): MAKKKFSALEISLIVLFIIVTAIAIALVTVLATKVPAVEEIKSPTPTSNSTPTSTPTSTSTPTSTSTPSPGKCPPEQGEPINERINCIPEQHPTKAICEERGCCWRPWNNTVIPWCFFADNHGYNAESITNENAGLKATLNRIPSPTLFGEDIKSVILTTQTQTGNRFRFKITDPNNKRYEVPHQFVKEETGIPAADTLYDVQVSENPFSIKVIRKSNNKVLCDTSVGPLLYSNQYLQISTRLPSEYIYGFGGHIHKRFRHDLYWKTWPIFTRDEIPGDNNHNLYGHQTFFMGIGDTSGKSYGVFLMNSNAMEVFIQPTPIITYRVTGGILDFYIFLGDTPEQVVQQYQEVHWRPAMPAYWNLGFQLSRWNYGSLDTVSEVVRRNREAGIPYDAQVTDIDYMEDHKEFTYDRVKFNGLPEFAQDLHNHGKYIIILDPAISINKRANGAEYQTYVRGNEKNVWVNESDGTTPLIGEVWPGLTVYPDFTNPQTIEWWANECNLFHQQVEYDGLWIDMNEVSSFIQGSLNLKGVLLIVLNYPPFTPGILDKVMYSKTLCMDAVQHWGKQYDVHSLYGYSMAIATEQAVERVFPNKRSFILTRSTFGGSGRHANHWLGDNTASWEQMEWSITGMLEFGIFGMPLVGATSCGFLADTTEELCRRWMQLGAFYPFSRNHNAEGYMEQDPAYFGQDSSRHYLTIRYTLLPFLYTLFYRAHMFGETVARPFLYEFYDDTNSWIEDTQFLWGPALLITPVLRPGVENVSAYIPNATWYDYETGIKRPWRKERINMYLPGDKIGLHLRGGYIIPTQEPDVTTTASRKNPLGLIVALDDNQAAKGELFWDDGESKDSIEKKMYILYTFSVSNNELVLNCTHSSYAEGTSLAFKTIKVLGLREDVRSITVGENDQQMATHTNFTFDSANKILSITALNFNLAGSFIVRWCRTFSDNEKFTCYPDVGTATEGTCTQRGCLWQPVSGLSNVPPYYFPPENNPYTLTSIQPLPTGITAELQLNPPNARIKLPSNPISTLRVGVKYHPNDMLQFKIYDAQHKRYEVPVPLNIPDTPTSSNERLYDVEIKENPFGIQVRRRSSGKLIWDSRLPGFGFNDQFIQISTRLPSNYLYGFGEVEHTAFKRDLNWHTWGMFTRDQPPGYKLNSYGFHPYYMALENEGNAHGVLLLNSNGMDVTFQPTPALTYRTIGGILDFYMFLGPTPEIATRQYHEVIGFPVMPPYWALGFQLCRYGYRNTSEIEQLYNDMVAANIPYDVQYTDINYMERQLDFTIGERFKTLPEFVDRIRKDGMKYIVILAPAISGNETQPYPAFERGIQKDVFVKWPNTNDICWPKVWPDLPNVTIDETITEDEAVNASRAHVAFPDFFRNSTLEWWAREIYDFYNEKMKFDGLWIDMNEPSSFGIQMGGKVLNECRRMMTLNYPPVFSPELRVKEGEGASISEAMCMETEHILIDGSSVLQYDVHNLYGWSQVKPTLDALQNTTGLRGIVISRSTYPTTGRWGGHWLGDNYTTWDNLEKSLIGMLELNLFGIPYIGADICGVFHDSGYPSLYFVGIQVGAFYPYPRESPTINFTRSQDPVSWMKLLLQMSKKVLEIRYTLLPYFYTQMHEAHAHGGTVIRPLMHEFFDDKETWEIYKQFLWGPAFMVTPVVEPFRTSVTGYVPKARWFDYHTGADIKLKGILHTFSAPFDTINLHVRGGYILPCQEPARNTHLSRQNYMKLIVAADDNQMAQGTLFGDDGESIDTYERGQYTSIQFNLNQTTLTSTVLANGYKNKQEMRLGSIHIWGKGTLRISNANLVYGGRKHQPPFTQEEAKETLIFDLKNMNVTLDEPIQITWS
Sequence of UniProt Q61143 (whole entry, looked up): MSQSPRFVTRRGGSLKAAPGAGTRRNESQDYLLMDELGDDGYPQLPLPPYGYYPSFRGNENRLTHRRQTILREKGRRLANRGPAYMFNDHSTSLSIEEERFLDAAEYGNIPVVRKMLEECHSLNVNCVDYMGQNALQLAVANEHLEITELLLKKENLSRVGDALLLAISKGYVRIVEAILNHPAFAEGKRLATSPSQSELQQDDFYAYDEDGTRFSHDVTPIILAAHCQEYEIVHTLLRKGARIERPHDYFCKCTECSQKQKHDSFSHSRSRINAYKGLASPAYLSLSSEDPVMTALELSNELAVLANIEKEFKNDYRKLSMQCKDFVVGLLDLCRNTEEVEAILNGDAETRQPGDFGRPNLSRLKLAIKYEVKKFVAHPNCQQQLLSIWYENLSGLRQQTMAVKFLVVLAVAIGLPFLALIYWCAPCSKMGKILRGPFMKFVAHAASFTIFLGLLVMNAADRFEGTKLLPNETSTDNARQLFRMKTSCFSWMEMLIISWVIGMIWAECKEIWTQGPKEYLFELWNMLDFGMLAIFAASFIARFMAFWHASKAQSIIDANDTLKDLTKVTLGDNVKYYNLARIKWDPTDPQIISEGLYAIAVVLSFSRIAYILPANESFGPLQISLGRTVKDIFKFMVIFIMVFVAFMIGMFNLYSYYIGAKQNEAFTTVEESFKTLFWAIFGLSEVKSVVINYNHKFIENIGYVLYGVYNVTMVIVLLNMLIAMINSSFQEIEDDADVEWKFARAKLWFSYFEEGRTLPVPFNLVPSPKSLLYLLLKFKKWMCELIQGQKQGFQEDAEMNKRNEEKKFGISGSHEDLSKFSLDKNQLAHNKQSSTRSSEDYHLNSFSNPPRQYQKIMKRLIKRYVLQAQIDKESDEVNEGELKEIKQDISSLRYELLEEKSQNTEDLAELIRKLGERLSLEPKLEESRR
Sequence of UniProt Q96LB1 (whole entry, looked up): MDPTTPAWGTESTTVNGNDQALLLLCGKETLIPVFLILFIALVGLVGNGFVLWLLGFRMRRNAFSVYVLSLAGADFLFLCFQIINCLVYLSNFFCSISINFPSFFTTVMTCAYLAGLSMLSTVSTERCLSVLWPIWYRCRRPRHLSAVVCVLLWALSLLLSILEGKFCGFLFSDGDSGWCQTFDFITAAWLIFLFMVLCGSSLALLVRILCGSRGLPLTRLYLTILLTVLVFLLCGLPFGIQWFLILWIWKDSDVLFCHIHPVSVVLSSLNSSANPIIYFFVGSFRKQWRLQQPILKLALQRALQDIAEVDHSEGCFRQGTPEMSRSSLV
Sequence of UniProt Q9NTG7 (whole entry, looked up): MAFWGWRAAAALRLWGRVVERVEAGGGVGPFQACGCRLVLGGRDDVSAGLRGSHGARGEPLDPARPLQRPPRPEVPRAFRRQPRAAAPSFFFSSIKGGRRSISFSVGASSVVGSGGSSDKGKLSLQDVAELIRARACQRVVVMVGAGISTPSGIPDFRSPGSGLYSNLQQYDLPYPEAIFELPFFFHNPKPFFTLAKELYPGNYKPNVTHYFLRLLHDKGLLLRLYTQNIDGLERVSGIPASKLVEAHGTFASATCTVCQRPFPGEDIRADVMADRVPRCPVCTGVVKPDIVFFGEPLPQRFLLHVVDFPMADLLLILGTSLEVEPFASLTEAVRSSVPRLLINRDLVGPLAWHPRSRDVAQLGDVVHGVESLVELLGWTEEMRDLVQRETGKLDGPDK
Sequence of UniProt P21741 (whole entry, looked up): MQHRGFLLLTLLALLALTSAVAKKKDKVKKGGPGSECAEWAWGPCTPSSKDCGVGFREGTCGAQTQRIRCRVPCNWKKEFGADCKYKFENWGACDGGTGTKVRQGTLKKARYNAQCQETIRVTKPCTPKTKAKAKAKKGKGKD
Sequence of UniProt P13010 (whole entry, looked up): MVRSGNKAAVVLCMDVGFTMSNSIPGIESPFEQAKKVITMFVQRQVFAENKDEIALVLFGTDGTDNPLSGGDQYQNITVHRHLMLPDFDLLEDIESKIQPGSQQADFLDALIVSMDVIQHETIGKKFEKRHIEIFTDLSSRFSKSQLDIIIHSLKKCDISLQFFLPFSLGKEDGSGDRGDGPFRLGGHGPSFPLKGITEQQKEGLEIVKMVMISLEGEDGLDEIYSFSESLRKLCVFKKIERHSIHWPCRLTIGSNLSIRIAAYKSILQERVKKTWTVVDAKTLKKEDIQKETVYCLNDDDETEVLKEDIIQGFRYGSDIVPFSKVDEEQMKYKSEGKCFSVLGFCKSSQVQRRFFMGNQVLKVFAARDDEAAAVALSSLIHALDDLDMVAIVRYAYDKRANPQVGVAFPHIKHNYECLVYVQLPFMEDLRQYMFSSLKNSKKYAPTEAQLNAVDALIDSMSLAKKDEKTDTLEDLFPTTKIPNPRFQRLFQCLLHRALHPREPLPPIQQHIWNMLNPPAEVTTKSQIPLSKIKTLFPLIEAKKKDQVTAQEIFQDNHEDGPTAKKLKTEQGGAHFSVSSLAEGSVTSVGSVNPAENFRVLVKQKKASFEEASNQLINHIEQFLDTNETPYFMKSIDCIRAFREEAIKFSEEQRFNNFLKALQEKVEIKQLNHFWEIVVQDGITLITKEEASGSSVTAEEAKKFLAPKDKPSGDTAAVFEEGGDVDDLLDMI
Sequence of UniProt P12956 (whole entry, looked up): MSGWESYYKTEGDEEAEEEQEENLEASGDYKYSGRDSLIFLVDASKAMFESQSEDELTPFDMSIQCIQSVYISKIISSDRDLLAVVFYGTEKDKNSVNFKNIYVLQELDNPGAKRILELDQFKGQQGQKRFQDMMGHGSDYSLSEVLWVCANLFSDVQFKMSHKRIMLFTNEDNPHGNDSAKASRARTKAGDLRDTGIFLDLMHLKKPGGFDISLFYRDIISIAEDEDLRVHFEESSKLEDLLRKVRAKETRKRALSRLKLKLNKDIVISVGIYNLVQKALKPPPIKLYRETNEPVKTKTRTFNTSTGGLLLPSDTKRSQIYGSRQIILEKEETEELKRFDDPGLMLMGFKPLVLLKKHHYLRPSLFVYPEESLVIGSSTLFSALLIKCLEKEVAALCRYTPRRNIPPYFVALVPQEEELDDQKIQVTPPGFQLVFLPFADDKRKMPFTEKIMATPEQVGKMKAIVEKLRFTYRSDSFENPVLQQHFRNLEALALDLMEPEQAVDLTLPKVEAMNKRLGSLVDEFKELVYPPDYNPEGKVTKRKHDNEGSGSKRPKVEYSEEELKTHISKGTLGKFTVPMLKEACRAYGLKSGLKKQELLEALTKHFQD

| Structure (SMILES) | target | test | test system | conditions | how to read | IC50 |
| --- | --- | --- | --- | --- | --- | --- |
| Cc1ccc(C2=NN=C(NC(=S)Nc3ccc(Cl)cc3)SC2)cc1 | KDR (Homo sapiens, UniProt P35968) | – | – | – | – | 0.11 ± 0.01 µM |
| Cc1ccccc1CO[C@@H](CO)[C@H](O)C[S@@+]1C[C@@H](O)[C@H](O)[C@H]1CO | Si | isomaltase activity, inhibitor | rat intestinal disaccharidases | – | – | 0.48 µM |
| O=C(/C=C1\C(=O)Nc2ccccc21)/C=C/c1ccc(F)cc1 | PIM-1 kinase | enzyme activity, inhibitor | – | – | – | 5 µM |
| COc1cccc2cc(C(=O)c3cn(-c4ccc(Cl)cc4)nn3)c(=O)oc12 | alpha-amylase | inhibitor | – | – | – | 4.11 µM |
| COc1ccc(O[C@@H]2O[C@H](C(=O)O)[C@@H](O[C@@H]3O[C@H](COS(=O)(=O)O)[C@H](OS(=O)(=O)O)[C@H](O[C@@H]4O[C@H](C(=O)O)[C@@H](O[C@@H]5O[C@H](COS(=O)(=O)O)[C@H](OS(=O)(=O)O)[C@H](O)[C@H]5NC(C)=O)[C@H](O)[C@H]4O)[C@H]3NC(C)=O)[C@H](O)[C@H]2O)cc1 | Midkine (Homo sapiens, UniProt P21741) | binding to tetrasaccharides, inhibitor | – | – | – | 254 µM |
| CCOC(=O)N1CCC(C)(c2cc(O)n3nc(C)c(-c4ccc(C(F)(F)F)cc4)c3n2)CC1 | Trpc6 (Mus musculus, UniProt Q61143) | ion channel activity, inhibitor | – | – | – | ~1 µM and 1 µM |
| O=C(Nc1ccc(C(F)(F)F)cc1)Nc1cc(Br)cc(C(F)(F)F)c1 | MRGPRX2 (Homo sapiens, UniProt Q96LB1) | antagonist | – | – | – | 0.62 µM |
| Cc1c(O)c(=O)ccn1-c1cccc(C(=O)N/N=C/c2ccco2)c1 | tyrosinase | enzyme activity, inhibitor | – | – | – | 8.94 µM |
| Cc1ccc(-c2nc3c(C(=O)Nc4ccccc4)c(Nc4ccccc4)nn3c(-c3ccc(Br)cc3)c2N)cc1 | alpha-glucosidase | inhibitor | – | – | – | 15.2 ± 0.4 µM |
| C[C@@H](OC(=O)Cc1ccc(Cl)c(SC2C(=O)CC(c3c(Cl)cccc3Cl)CC2=O)c1)c1ccccc1 (some centres unmarked) | LDHA (Homo sapiens, UniProt P00338) | enzyme activity, inhibitor | – | – | – | 0.006 µM |
| OC[C@H](OCc1ccccc1Cl)[C@H](O)C[S@@+]1C[C@@H](O)[C@H](O)[C@H]1CO | Si | isomaltase activity, inhibitor | rat intestinal disaccharidases | – | – | 0.26 µM |
| COc1ccc(C2=C(C#N)C(OCC(=O)NNC(=S)Nc3cccc([N+](=O)[O-])c3)NC(c3nc4ccccc4[nH]3)=C2)cc1 (centres unmarked) | DNA gyrase | enzyme activity | – | – | – | 0.94 µM |
| C#CCCCC1(CCC(=O)N[C@@H](CCCCNC(=S)CCC(=O)O)C(=O)N[C@@H](C)C(=O)N[C@@H](C)C(=O)OC)N=N1 | SIRT3 (Homo sapiens, UniProt Q9NTG7) | deacetylase activity, inhibitor, HPLC | – | with: H3K9ac substrate | – | > 5000 µM |
| Cc1ccc(S(=O)(=O)N2CCN(C(=O)N(c3ccccc3)c3ccccc3)CC2)cc1 | human lysosomal alpha-glucosidase | inhibitor | – | – | – | 25.1 µM |
| N=C(N)N/N=C1\CCc2c(C(=N)N)cccc21 | human AdoMetDC F233A | inhibitor | – | – | relative to: wild type | increased |
| CC1=NN(c2cccc(C(=O)O)c2)C(=O)C1=Cc1ccc(-c2ccc(Cl)c(C(=O)O)c2)o1 | X-ray repair cross-complementing protein 6/X-ray repair cross-complementing protein 5 (Homo sapiens, UniProt P12956+P13010) | DNA binding, EMSA | – | – | – | 75 µM |
| Nc1nc2c(N)[n+]3cnc2n1[C@H]1C[C@H](O)[C@@H](COP(=O)([O-])OP(=O)(O)OC[C@H]2O[C@@H]3[C@H](O)[C@@H]2O)O1 | cADPR receptor, sea urchin | antagonist | sea urchin egg homogenate | – | – | 0.22 µM |

Repeated from above:
| Structure (SMILES) | target | test | test system | conditions | how to read | IC50 |
| --- | --- | --- | --- | --- | --- | --- |
| COc1ccc(C2=C(C#N)C(OCC(=O)NNC(=S)Nc3cccc([N+](=O)[O-])c3)NC(c3nc4ccccc4[nH]3)=C2)cc1 (centres unmarked) | DNA gyrase | enzyme activity | – | – | – | 0.94 µM |
| C#CCCCC1(CCC(=O)N[C@@H](CCCCNC(=S)CCC(=O)O)C(=O)N[C@@H](C)C(=O)N[C@@H](C)C(=O)OC)N=N1 | SIRT3 (Homo sapiens, UniProt Q9NTG7) | deacetylase activity, inhibitor, HPLC | – | with: H3K9ac substrate | – | > 5000 µM |
